Assay results from different studies.
Each line is one published result; not all experiments were run side by side. Numbers after ± are the reported error.
KCNH2: Voltage-gated inwardly rectifying potassium channel KCNH2 (KCNH2, Homo sapiens, UniProt Q12809)
Sequence of UniProt Q12809 (whole entry, unmodified, looked up): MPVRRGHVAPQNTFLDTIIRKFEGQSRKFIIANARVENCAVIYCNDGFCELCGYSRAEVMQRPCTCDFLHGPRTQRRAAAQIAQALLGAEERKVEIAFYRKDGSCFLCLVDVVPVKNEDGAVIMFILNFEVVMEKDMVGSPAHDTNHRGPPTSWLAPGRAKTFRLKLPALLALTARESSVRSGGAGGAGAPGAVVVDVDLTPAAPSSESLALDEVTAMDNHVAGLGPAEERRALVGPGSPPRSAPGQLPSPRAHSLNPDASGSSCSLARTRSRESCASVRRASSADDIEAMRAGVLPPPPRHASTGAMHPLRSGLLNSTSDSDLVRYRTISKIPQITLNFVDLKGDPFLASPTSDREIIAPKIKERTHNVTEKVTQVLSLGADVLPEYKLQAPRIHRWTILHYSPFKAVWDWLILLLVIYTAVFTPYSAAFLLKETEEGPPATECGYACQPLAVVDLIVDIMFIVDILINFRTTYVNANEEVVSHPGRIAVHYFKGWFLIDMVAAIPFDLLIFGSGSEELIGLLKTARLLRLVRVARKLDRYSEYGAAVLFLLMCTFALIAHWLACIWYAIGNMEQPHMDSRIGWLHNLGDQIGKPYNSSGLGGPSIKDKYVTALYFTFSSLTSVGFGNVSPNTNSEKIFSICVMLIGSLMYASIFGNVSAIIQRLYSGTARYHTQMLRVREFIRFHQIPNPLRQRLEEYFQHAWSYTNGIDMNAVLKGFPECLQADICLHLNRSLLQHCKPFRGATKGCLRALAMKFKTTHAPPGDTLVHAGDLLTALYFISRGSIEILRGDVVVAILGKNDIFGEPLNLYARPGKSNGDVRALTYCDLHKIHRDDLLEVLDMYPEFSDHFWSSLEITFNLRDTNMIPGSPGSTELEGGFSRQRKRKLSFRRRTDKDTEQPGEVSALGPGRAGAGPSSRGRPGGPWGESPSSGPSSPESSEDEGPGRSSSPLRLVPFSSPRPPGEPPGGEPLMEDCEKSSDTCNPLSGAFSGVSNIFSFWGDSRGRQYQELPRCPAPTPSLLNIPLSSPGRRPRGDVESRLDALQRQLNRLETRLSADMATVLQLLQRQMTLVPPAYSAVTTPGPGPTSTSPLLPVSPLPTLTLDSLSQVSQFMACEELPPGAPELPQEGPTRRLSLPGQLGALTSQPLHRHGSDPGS

SMILES = C[C@H]1CN(C(=O)c2cn(-c3ccnc(N)n3)c3cc(C#CC4(O)CCCCC4)ccc23)CCN1; target = KCNH2; IC50 = > 30 µM
SMILES = CN(CCOc1ccc(F)cc1)C(=O)c1cccc(S(=O)(=O)N2CCc3ccccc3C2)c1; target = KCNH2; test = ion current, inhibitor; IC50 = 8.62 µM
SMILES = NCCCNc1nc2cc(Cl)ccc2n1Cc1ccccc1; target = KCNH2; test = ion current, inhibitor; IC50 = 1.63 µM
SMILES = CC(=O)c1cnc(N)nc1N1CC[C@H]1c1nn2ccc(Cl)c2c(=O)n1-c1ccccc1; target = KCNH2; test = potassium current, electrophysiology; IC50 = 2.3 to 2.9 µM
SMILES = C=C(C)C(=O)Nc1ccc(-c2c(-c3ccc(Oc4nccc(C)n4)cc3)c3c(N)ncnc3n2C)cc1; target = KCNH2; test = ion current, inhibitor; IC50 = 14 µM
SMILES = Cc1ncc2nc(C)n(Cc3c(F)cc(S(N)(=O)=O)cc3F)c2c1-c1ccccc1; target = KCNH2; test = ion current, inhibitor, patch clamp; IC50 = 11.7 µM
SMILES = Cc1ccc(O)c(C)c1OCC(C)N (stereo not shown); target = KCNH2 (Homo sapiens, UniProt Q12809, F656A); test = inhibitor; system = CHO; IC50 = 436 ± 130 µM
SMILES = NC(=O)c1c(F)ccc(OCc2nc3cc(Cl)cnc3s2)c1F; target = KCNH2; test = ion current, inhibitor, patch clamp; IC50 = > 10 µM
SMILES = CN(c1ccccc1)S(=O)(=O)c1cccc(C(=O)N2CCN(C(=O)Cc3ccc(F)cc3)CC2)c1; target = KCNH2; test = ion current, inhibitor; IC50 = 9.46 µM
SMILES = CCC(=O)N(C)c1ccc(Cl)c(Cl)c1; target = KCNH2; test = ion current, inhibitor, patch clamp; system = HEK293; IC50 = > 100 µM
SMILES = C=CC(=O)Nc1cccc(Cn2ncc3cnc(Nc4cnn(CCOC)c4)nc32)c1; target = KCNH2; test = ion current, inhibitor, patch clamp; IC50 = > 30 µM
SMILES = O=C(c1cccc(S(=O)(=O)N2CCc3ccccc3C2)c1)N1CCC(OCc2ccccc2)CC1; target = KCNH2; test = ion current, inhibitor; IC50 = 7.33 µM
SMILES = Cn1cc(-c2cc(N3CCCCS3(=O)=O)ccc2N[C@H]2CC[C@H](C)CC2)c2cc[nH]c2c1=O (stereo in doubt); target = KCNH2; test = ion current, inhibitor; IC50 = > 40 µM
SMILES = CCNCC#CCNc1ccnc2cc(Cl)ccc12; target = KCNH2; test = ion current, inhibitor, patch clamp; system = CHO; IC50 = 12.2 µM
SMILES = O=C(C1CCN(c2nnnn2-c2ccccc2)CC1)N1CCCc2ccccc21; target = KCNH2; test = ligand displacement, FP; setting = 4 h, cell membranes; IC50 = 10.6 µM
SMILES = N#Cc1ccc(Nc2ncc(CO)c(Oc3c(F)cc(-c4ccc(C#N)cc4)cc3F)n2)cc1; target = KCNH2; test = ion current, inhibitor, patch clamp; system = CHO; IC50 = > 40 µM
SMILES = [2H]c1c(NS(C)(=O)=O)c([2H])c2c(C(=O)c3ccc(OCCCN(CCCC)CCCC)cc3)c(CCCC)oc2c1[2H]; target = KCNH2; test = tail potassium current, blocker, whole-cell patch clamp; system = HEK293FT transfected; setting = co-expressed KCNE1; IC50 = 0.17 µM
SMILES = C[C@H](NC(=O)c1cc(S(=O)(=O)N2CCOCC2)ccc1N1CCCCC1)c1cc2ccccc2o1; target = KCNH2; test = ion current, inhibitor; IC50 = 8.05 µM
SMILES = CCN(CC)CC#CCNc1ccnc2cc(Cl)ccc12; target = KCNH2; test = ion current, inhibitor, patch clamp; system = CHO; IC50 = 7.3 µM

Repeated from above:
SMILES = CN(c1ccccc1)S(=O)(=O)c1cccc(C(=O)N2CCN(C(=O)Cc3ccc(F)cc3)CC2)c1; target = KCNH2; test = ion current, inhibitor; IC50 = 9.46 µM
SMILES = Cn1cc(-c2cc(N3CCCCS3(=O)=O)ccc2N[C@H]2CC[C@H](C)CC2)c2cc[nH]c2c1=O (stereo in doubt); target = KCNH2; test = ion current, inhibitor; IC50 = > 40 µM
